{"data": "Assay results of several laboratories", "note": "Each line is one published result; not all experiments were run side by side. Several values in a cell are separate wells, animals, samples, runs or records. ± gives the spread as reported."}
{"Compound": "CC(=O)NCCCC[C@@H]1NC(=O)[C@H](Cc2c[nH]c3c(C)cccc23)NC(=O)[C@H]([C@@H](C)O)NC(=O)[C@H](CC(N)=O)NC(=O)[C@@H](NC(C)=O)C(C)(C)SSC(C)(C)[C@@H](C(=O)N[C@@H](Cc2ccc(OCCN)cc2)C(=O)N[C@@H](Cc2ccc3ccccc3c2)C(=O)NC2(C(=O)N[C@@H](CCC(=O)O)C(=O)N[C@@H](CC(N)=O)C(=O)N[C@@H](Cc3cccnc3)C(=O)N(C)CC(N)=O)CCOCC2)NC1=O", "system": "dog, blood", "conditions": "0.013 µM, 2 h", "measurement": "blood to plasma ratio", "result": "0.84 ± 0.06"}
{"Compound": "CCCCCCCCCCCCCCCC(=O)N[C@@H](CCC(=O)NCCOCCOCCC(=O)NCCOCCOCCC(=O)NCCCC[C@H](NC(=O)[C@H](CC(=O)O)NC(=O)[C@H](CC(C)C)NC(=O)[C@H](Cc1ccc(O)cc1)NC(=O)[C@H](CCCCN)NC(=O)[C@H](CO)NC(=O)[C@H](Cc1ccc(O)cc1)NC(=O)[C@H](CC(=O)O)NC(=O)[C@H](CO)NC(=O)[C@@H](NC(=O)[C@H](Cc1ccccc1)NC(=O)[C@@H](NC(=O)CNC(=O)[C@H](CCC(N)=O)NC(=O)[C@@H](CO)NC(=O)[C@@H](N)Cc1c[nH]cn1)[C@@H](C)O)[C@@H](C)O)C(=O)N[C@@H](CCCNC(=N)N)C(=O)N[C@@H](CCCNC(=N)N)C(=O)N[C@@H](C)C(=O)N[C@@H](CCC(N)=O)C(=O)N[C@@H](CC(=O)O)C(=O)N[C@@H](Cc1ccccc1)C(=O)N[C@H](C(=O)N[C@@H](CCC(N)=O)C(=O)N[C@@H](Cc1c[nH]c2ccccc12)C(=O)N[C@@H](CC(C)C)C(=O)N[C@@H](CC(C)C)C(=O)N[C@@H](CC(N)=O)C(=O)N[C@H](C(=O)NCC(=O)NCC(=O)N1CCC[C@H]1C(=O)N[C@@H](CO)C(=O)N[C@@H](CO)C(=O)NCC(=O)N[C@@H](C)C(=O)N1CCC[C@H]1C(=O)N1CCC[C@H]1C(=O)N1CCC[C@H]1C(=O)N[C@@H](CO)C(N)=O)[C@@H](C)O)C(C)C)C(=O)O", "system": "rhesus monkey, female", "conditions": "subcutaneous, 300 µg/kg, day 1, median", "measurement": "Tmax", "result": "4 h"}
{"Compound": "COc1cnc2cccc(N3CCc4c(cc(Cn5ccnc5)cc4-c4cn(C)nc4C(F)(F)F)C3=O)c2c1", "system": "BALB/c nude mice, MV4-11 xenograft", "conditions": "intraperitoneal, 100 mg/kg, day 35", "measurement": "body weight", "result": "22.5 g and 23.7 g and 20.7 g and 24.7 g and 23.1 g"}
{"Compound": "CN[C@H](CC(C)C)C(=O)N[C@H]1C(=O)N[C@@H](CC(N)=O)C(=O)N[C@H]2C(=O)N[C@H]3C(=O)N[C@H](C(=O)N[C@H](C(=O)O)c4cc(O)cc(O)c4-c4cc3ccc4O)[C@H](O)c3ccc(c(Cl)c3)Oc3cc2cc(c3O[C@@H]2O[C@H](CO)[C@@H](O)[C@H](O)[C@H]2O[C@H]2C[C@](C)(NCc3ccc(-c4ccc(Cl)cc4)cc3)[C@H](O)[C@H](C)O2)Oc2ccc(cc2Cl)[C@H]1O", "system": "mouse, plasma", "conditions": "intravenous, 75 mg/kg", "measurement": "AUC", "result": "575 µg·h/mL"}
{"Compound": "CC(C)Oc1c(NC(=O)c2ccc(NC(=O)[C@H](CC(N)=O)NC(=O)c3ccc(/N=N/c4ccccc4)cc3)cc2)ccc(C(=O)N/N=C/c2ccc(C(=O)O)cc2)c1O", "assay": "absorbance", "system": "DMSO", "conditions": "50 °C, PSS to ground state relaxation", "measurement": "thermal half-life", "result": "3.6 h"}
{"Compound": "CCN(CC)CCOc1ccc(-c2nnn(Cc3ccc(OC)cc3)c2N)cc1", "system": "Sprague-Dawley rat", "conditions": "oral, once daily, 4 weeks", "measurement": "STD10", "result": "100 mg/kg"}
{"Compound": "CCCCCCCCCCCCCCCC(=O)N[C@@H](CCC(=O)NCCCC[C@H](NC(=O)[C@H](CC(=O)O)NC(=O)[C@H](CO)NC(=O)[C@@H](NC(=O)[C@H](Cc1ccccc1)NC(=O)[C@@H](NC(=O)CNC(=O)[C@H](CCC(N)=O)NC(=O)[C@H](C)NC(=O)[C@@H](Cc1ccc(O)cc1)NC(C)=O)[C@@H](C)O)[C@@H](C)O)C(=O)N[C@@H](CO)C(=O)N[C@@H](CCCCN)C(=O)N[C@@H](Cc1ccc(O)cc1)C(=O)N[C@@H](CC(C)C)C(=O)N[C@@H](CC(=O)O)C(=O)N[C@@H](CCC(=O)O)C(=O)N[C@@H](CCCNC(=N)N)C(=O)N[C@@H](C)C(=O)N[C@@H](C)C(=O)N[C@@H](CCC(N)=O)C(=O)N[C@@H](CC(=O)O)C(=O)N[C@@H](Cc1ccccc1)C(=O)N[C@H](C(=O)N[C@@H](CCC(N)=O)C(=O)N[C@@H](Cc1c[nH]c2ccccc12)C(=O)N[C@@H](CC(C)C)C(=O)N[C@@H](CC(C)C)C(=O)N[C@@H](CCC(=O)O)C(=O)NCC(=O)NCC(=O)N1CCC[C@H]1C(=O)N[C@@H](CO)C(=O)N[C@@H](CO)C(=O)NCC(=O)N[C@@H](C)C(=O)N1CCC[C@H]1C(=O)N1CCC[C@H]1C(=O)N1CCC[C@H]1C(=O)N[C@@H](CO)C(N)=O)C(C)C)C(=O)O", "system": "male cynomolgus monkey, plasma", "conditions": "subcutaneous, 0.0161 mg/kg", "measurement": "Cmax", "result": "120 ng/mL"}
{"Compound": "CSCC[C@H](N)C(=O)N[C@@H](C)C(=O)N[C@@H](Cc1c[nH]c2ccccc12)C(=O)N[C@@H](Cc1c[nH]cn1)C(=O)N[C@@H](CC(=O)O)C(=O)N[C@@H](CC(=O)O)C(=O)N[C@@H](CCC(=O)O)C(=O)N[C@@H](CCC(=O)O)C(=O)N[C@@H](Cc1ccccc1)C(=O)N[C@@H](C)C(=O)N[C@@H](CCCNC(=N)N)C(=O)N[C@@H](CCCNC(=N)N)C(=O)N[C@@H](CCCNC(=N)N)C(=O)N[C@@H](CCCNC(=N)N)C(=O)NCCCCCC(=O)NCCCCC(NC(=O)CCCCCNC(=O)[C@H](CCCNC(=N)N)NC(=O)[C@H](CCCNC(=N)N)NC(=O)[C@H](CCCNC(=N)N)NC(=O)[C@H](CCCNC(=N)N)NC(=O)[C@H](C)NC(=O)[C@H](Cc1ccccc1)NC(=O)[C@H](CCC(=O)O)NC(=O)[C@H](CCC(=O)O)NC(=O)[C@H](CC(=O)O)NC(=O)[C@H](CC(=O)O)NC(=O)[C@H](Cc1c[nH]cn1)NC(=O)[C@H](Cc1c[nH]c2ccccc12)NC(=O)[C@H](C)NC(=O)[C@@H](N)CCSC)C(=O)NCCCCC(NC(=O)C(CCCCNC(=O)CCCCCNC(=O)[C@H](CCCNC(=N)N)NC(=O)[C@H](CCCNC(=N)N)NC(=O)[C@H](CCCNC(=N)N)NC(=O)[C@H](CCCNC(=N)N)NC(=O)[C@H](C)NC(=O)[C@H](Cc1ccccc1)NC(=O)[C@H](CCC(=O)O)NC(=O)[C@H](CCC(=O)O)NC(=O)[C@H](CC(=O)O)NC(=O)[C@H](CC(=O)O)NC(=O)[C@H](Cc1c[nH]cn1)NC(=O)[C@H](Cc1c[nH]c2ccccc12)NC(=O)[C@H](C)NC(=O)[C@@H](N)CCSC)NC(=O)CCCCCNC(=O)[C@H](CCCNC(=N)N)NC(=O)[C@H](CCCNC(=N)N)NC(=O)[C@H](CCCNC(=N)N)NC(=O)[C@H](CCCNC(=N)N)NC(=O)[C@H](C)NC(=O)[C@H](Cc1ccccc1)NC(=O)[C@H](CCC(=O)O)NC(=O)[C@H](CCC(=O)O)NC(=O)[C@H](CC(=O)O)NC(=O)[C@H](CC(=O)O)NC(=O)[C@H](Cc1c[nH]cn1)NC(=O)[C@H](Cc1c[nH]c2ccccc12)NC(=O)[C@H](C)NC(=O)[C@@H](N)CCSC)C(N)=O (some centres unmarked)", "system": "C57BL/6 mouse female, stomach", "conditions": "dose not given, 6 h", "how to read": "reference: total", "measurement": "mean tissue distribution", "result": "26%"}
{"Compound": "COC(=O)[C@H]1[C@@H](c2ccc(Cl)c(Cl)c2)C[C@@H]2CC[C@H]1N2CCCCCc1c2ccccc2cc2ccccc12", "assay": "fluorometric titration", "conditions": "1 µM, 10% DMSO", "measurement": "pKa", "result": 5.6}
{"Compound": "O=C1NC2(CC2)COc2ncc(F)cc2[C@H]2COCCN2c2ccn3ncc1c3n2", "system": "Sprague-Dawley rat, female, serum", "conditions": "oral, 20 mg/kg/day, end of recovery, 4-week repeated-dose toxicity", "measurement": "albumin/globulin ratio", "result": "2.22 ± 0.26"}
{"Compound": "Cn1nc(NS(C)(=O)=O)c2c(Cl)ccc(-n3c([C@H](Cc4cc(F)cc(F)c4)NC(=O)Cn4nc(C(F)F)c5c4C(F)(F)[C@@H]4C[C@H]54)nc4nc(OCCC(F)(F)F)ccc4c3=O)c21", "system": "human, plasma", "conditions": "oral, 25 mg single dose, powder in bottle, geometric mean", "measurement": "half-life", "result": "64 h"}
{"Compound": "O=C(c1cc(Cc2n[nH]c(=O)c3ccccc23)ccc1F)N1CC(CNC2CC2)C1", "system": "Caco-2", "measurement": "Papp", "result": "10.8 ×10⁻⁶ cm/s"}
{"Compound": "CN1Cc2cc(Cl)ccc2-n2c(nnc2C2CCN(c3cccc([18F])n3)CC2)C1", "assay": "PET two-tissue compartment model", "system": "rhesus monkey, cerebellum", "conditions": "intravenous, dose not given, 80 min scan, baseline scan", "measurement": "total volume of distribution", "result": "0.88 ± 0.32 mL/cm3"}
{"Compound": "CC[C@H](C)[C@H](NC(=O)CNC(=O)[C@H](Cc1c[nH]cn1)NC(=O)[C@H](CC(C)C)NC(=O)CNC(=O)[C@H](CC(C)C)NC(=O)[C@H](CCCCN)NC(=O)[C@H](Cc1ccccc1)NC(=O)[C@H](CC(C)C)NC(=O)[C@H](CCCCN)NC(=O)CNC(=O)[C@H](Cc1c[nH]c2ccccc12)NC(=O)[C@H](Cc1ccccc1)NC(=O)CN)C(=O)NCC(=O)N[C@@H](CC(C)C)C(=O)N[C@@H](CC(C)C)C(=O)N[C@@H](Cc1c[nH]cn1)C(=O)N[C@@H](CC(C)C)C(=O)N[C@@H](Cc1c[nH]cn1)C(=O)N[C@@H](CC(C)C)C(N)=O", "system": "zebrafish embryos 4 hpf, E3 medium", "conditions": "24 h", "measurement": "chronic toxic concentration", "result": "1 µM"}
{"Compound": "CCCC[C@H]1C(=O)N(C)[C@@H](CCCC)C(=O)N[C@@H](CCCNC(=O)CN2CCN(CC(=O)O)CCN(CC(=O)O)CCN(CC(=O)O)CC2)C(=O)N[C@H](C(=O)NCC(N)=O)CSCC(=O)N[C@@H](Cc2ccc(O)cc2)C(=O)N(C)[C@@H](C)C(=O)N[C@@H](CC(N)=O)C(=O)N2CCC[C@H]2C(=O)N[C@@H](Cc2c[nH]cn2)C(=O)N[C@@H](CC(C)C)C(=O)N(C)CC(=O)N[C@@H](Cc2c[nH]c3ccccc23)C(=O)N[C@@H](CO)C(=O)N[C@@H](Cc2c[nH]c3ccccc23)C(=O)N1C [gallium-68 labelled]", "system": "NOD/SCID mice with CHO-hPD-L1 xenograft, bone", "conditions": "120 min post injection", "measurement": "tissue uptake", "result": "2.82 ± 1.37 %ID/g"}
{"Compound": "CC[C@H](C)[C@H](NC(=O)[C@H](CCCCN)NC(=O)CNC(=O)[C@H](CC(C)C)NC(=O)[C@H](Cc1ccccc1)NC(=O)[C@H](CCCCN)NC(=O)[C@H](CO)NC(=O)[C@H](Cc1ccccc1)NC(=O)[C@H](Cc1c[nH]c2ccccc12)NC(=O)[C@H](CCC(N)=O)NC(=O)[C@@H](NC(=O)[C@H](Cc1ccccc1)NC(=O)CCCCCNC(=O)CN1CCN(CC(=O)O)CCN(CC(=O)O)CCN(CC(=O)O)CC1)C(C)C)C(=O)N[C@@H](CCC(=O)O)C(=O)N1CCC[C@H]1C(=O)N[C@@H](CC(=O)O)C(=O)N[C@H](C(=O)N[C@@H](CO)C(=O)N[C@@H](CCC(N)=O)C(=O)N[C@H](C(=O)N[C@@H](CCC(N)=O)C(=O)N[C@@H](CC(=O)O)C(=O)N1CCC[C@H]1C(=O)N[C@@H](CC(N)=O)C(=O)N[C@@H](CC(=O)O)C(=O)N[C@@H](CCC(N)=O)C(=O)N[C@@H](Cc1ccc(O)cc1)C(=O)N[C@@H](CCC(=O)O)C(=O)N1CCC[C@H]1C(=O)N[C@@H](Cc1ccccc1)C(=O)O)C(C)C)C(C)C [copper-64 labelled]", "assay": "dynamic PET", "system": "mouse both sexes, CT26 tumour, checkpoint inhibitor-treated, tumour", "conditions": "intravenous, 100 µCi/mouse, 150 s", "measurement": "SUVmean", "result": "2.28 SUV"}
{"Compound": "N#[11C]c1ccc(-c2csc(NN=C3CCCC3)n2)cc1", "system": "C57BL/6 mouse, male", "conditions": "intravenous, 3 MBq, 60 min", "measurement": "uptake in testis", "result": "0.9 ± 0.48 %ID/g"}
{"note": "Repeated from above:"}
{"Compound": "O=C1NC2(CC2)COc2ncc(F)cc2[C@H]2COCCN2c2ccn3ncc1c3n2", "system": "Sprague-Dawley rat, female, serum", "conditions": "oral, 20 mg/kg/day, end of recovery, 4-week repeated-dose toxicity", "measurement": "albumin/globulin ratio", "result": "2.22 ± 0.26"}
{"Compound": "COc1cnc2cccc(N3CCc4c(cc(Cn5ccnc5)cc4-c4cn(C)nc4C(F)(F)F)C3=O)c2c1", "system": "BALB/c nude mice, MV4-11 xenograft", "conditions": "intraperitoneal, 100 mg/kg, day 35", "measurement": "body weight", "result": "22.5 g and 23.7 g and 20.7 g and 24.7 g and 23.1 g"}
